{"data": "Measurements from different studies", "note": "Each numbered part is a random draw from the data of one study; scales do not carry over between parts. Changes are numbered by the printed parent chain."}
{"data": "Block 1", "target": "CCNE2, cyclin fold, Cln2 fusion (human)", "method": "yeast growth competition, sequencing", "sample": "yeast", "setting": "weak parent motif", "baseline": "not given", "reading": "higher = stronger binding", "starting sequence": "ORC1 docking peptide (human); PRARKRLELGNLG"}
{"Change": "R2A", "normalised enrichment score": 0.288}
{"Change": "P1E", "normalised enrichment score": 0.862}
{"Change": "K5E", "normalised enrichment score": 0.188}
{"Change": "R4W", "normalised enrichment score": 0.498}
{"Change": "E8F", "normalised enrichment score": 0.727}
{"Change": "K5V", "normalised enrichment score": 0.0845}
{"Change": "N11K", "normalised enrichment score": 0.548}
{"Change": "L12G", "normalised enrichment score": 0.25}
{"Change": "E8R", "normalised enrichment score": 0.701}
{"Change": "N11Y", "normalised enrichment score": 0.834}
{"Change": "R4M", "normalised enrichment score": 0.0345}
{"Change": "L12Q", "normalised enrichment score": 0.509}
{"data": "Block 2", "target": "Hepatocyte nuclear factor 3-alpha (Foxa1, Mus musculus, UniProt P35582, residues 1-468, full length assumed)", "method": "EMSA with sequencing", "molecule type": "double-stranded DNA, one strand shown", "sample": "in vitro", "concentration": "10 and 20 nM", "setting": "whole designed probe, mean of two concentrations, ends assumed", "baseline": "negative control set to 0", "reading": "higher = stronger binding", "constant ends, left off below": "GTGAGCGGTGCCCATTGATGGGGAAC … TTTCACTGGGATCGTGGGGAC", "Construct (chain)": "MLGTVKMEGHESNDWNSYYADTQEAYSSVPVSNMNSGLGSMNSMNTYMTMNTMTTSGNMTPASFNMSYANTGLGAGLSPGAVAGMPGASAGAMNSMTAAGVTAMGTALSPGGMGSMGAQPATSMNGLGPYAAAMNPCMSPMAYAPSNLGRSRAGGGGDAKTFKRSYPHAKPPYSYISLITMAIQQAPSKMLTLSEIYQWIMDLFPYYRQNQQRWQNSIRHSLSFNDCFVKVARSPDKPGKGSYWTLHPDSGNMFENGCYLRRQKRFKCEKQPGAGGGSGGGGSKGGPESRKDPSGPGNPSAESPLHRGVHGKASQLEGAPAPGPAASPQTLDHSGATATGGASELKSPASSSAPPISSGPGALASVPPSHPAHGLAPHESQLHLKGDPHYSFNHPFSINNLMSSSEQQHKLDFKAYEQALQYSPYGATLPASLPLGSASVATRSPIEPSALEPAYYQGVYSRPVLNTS"}
{"Oligonucleotide": "ATCTTCCCCCTCTTCCTTGCCCCACCAGCTCACCTTCCCGGGTTATTTGCAGATAGGAAAATAAATAAAGCCGGCATTCGTTAACCCTCTTCTGGCGCAAACTGCTGTTTGCTCTGGATGAATCATGCCTTGTGTGCGACGCCAGGCTCCGGGAGAGCAAAGCACCGTGTCAGGGCCATGATCCGGGGTGGCC", "normalised bound fraction [ratio]": 0.353}
{"Oligonucleotide": "GCTCAAAAAGCTCGGCTCAAAACTTCATTGTTTTAGGTATTTTGGGGGGAAACGAAGAGTTATCTCAGGAAGGGGGAAATATGTATAGAAAAGTAATCTTGAAAACATAAGAATATTTATTCAGTAGTTCATCAAATATATATCAAAACTCTACAATGCCCCCAGATACATATTCTGTACAAGAAGAAATACG", "normalised bound fraction [ratio]": 0.153}
{"Oligonucleotide": "TCCACAGTAGAAACGAAGGAGATGACAGATACCCCGGCACCAAAACTGACACCAGGTTTTTGTTGCTTCTTCCACTATATAATGGAGAAGTTCTGTTTACTCTAGTTGTGCAACTACTGTTAACATTGGCTTAAGGAAACCCAAGAAACTGAATCACATCAAAGGTATGTCAGAGGTATGTGAACCAGAGCAA", "normalised bound fraction [ratio]": 0.362}
{"Oligonucleotide": "CATATAAATGAATATAAATATGAATATGAATACAATCAATAGATAGACATCTGCCATCTTCTTACCACTGCCACCCATCCCAGTGACTTTTTGTTGTTTACTCAGACTAAAATGTCATCATAAGATAAAAATCCATCTATATTTCTATTTGGGATCAATACTACATATTTACTGTTACTTGTCATCCTTTGAT", "normalised bound fraction [ratio]": 0.417}
{"Oligonucleotide": "ATATCTGCTTTGCCTTATAAGATGAGAATTAAACATATTATTAGTTAAACTTGGCTAAATTCTATGCAGTAATAGATAACCCCAAAACCTCTATGTAATCTTAAAGTTATTCCCCGATAAAGCAATTTACTGTGGGCCTGGCAACTCTTTCATGCAGCCTTCTTGCTGATCACAGCTAATGGAGACATCGTCA", "normalised bound fraction [ratio]": -0.0129}
{"Oligonucleotide": "CATCAGAGTGCCCCCAAAAGGCAGCCCGGGAAATGAGCAGGGGCGCGCTGACCTTTAGCGAGACAGCGAAGGTTATGCACATAACATTTGCTTGTTTACTTTGCAAAATAAGCAACGAGTTGGAAACTCCGAGTTTCGCCTGCGCCTCCGCGCACTTAAAAAACAACAACAGGAACCAGAGGCTGCCGGTCTT", "normalised bound fraction [ratio]": 0.453}
{"Oligonucleotide": "GCATGAGCCGCATTGCCCAGCAAAAGCCTCTAAGTGGTGATTTGCTGTTTGGCCTGAGAGTAATTTGGAGGCTGTGGCTGAGTCAGCTTCTCTTGTTGACTGAGCAGTTGACTCTTTTGACCTTCATTGTTCCATAATTCCTTATGAAACTCTTCTGAAGCACTGAGAACCATCGACGGATCATATCAGCATG", "normalised bound fraction [ratio]": 0.0236}
{"Oligonucleotide": "GTGTTCAAGGAGGAGCTTTATTAACTCAGCACTTCTAACAATTTCCTAGGTACTTATAAGACATTTCCAAAGTCAAGTTAATGAGCTGCAGAGTAAACAAGAGTCTCTCGTAGTTTCTGAAGTTCGAGAAGAAATTCTACAGAAAGAGGTAAGAAATGGCCAAAATATTGGGCTAAAATAAGTTTTTCTTAGG", "normalised bound fraction [ratio]": 0.317}
{"data": "Block 3", "target": "ABI1, truncated, D143A, DHFR fusion (Arabidopsis thaliana)", "method": "DHFR PCA, deep sequencing", "sample": "yeast", "setting": "methotrexate growth selection, single substitutions", "added": "(+)-ABA 0.032 µM", "baseline": "wild-type fitted maximum", "reading": "higher = stronger binding", "starting sequence": "PYL1, truncated, DHFR fusion (Arabidopsis thaliana); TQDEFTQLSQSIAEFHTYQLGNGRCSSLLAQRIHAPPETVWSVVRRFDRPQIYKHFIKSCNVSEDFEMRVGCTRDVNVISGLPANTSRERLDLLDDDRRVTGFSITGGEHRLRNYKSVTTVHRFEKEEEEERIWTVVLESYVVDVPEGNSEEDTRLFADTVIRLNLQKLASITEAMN"}
{"Change": "A30I", "relative binding score": "6.47%"}
{"Change": "D92N", "relative binding score": "2.67%"}
{"Change": "K168Q", "relative binding score": "5.52%"}
{"Change": "E4F", "relative binding score": "8.83%"}
{"Change": "Y18M", "relative binding score": "2.94%"}
{"Change": "C72M", "relative binding score": "24.8%"}
{"Change": "N165G", "relative binding score": "3.57%"}
{"Change": "T86V", "relative binding score": "38.2%"}
{"Change": "Y18L", "relative binding score": "-2.06%"}
{"Change": "R90A", "relative binding score": "-1.32%"}
{"Change": "L29S", "relative binding score": "2.51%"}
{"Change": "V43Q", "relative binding score": "-4%"}
{"Change": "A30T", "relative binding score": "11.3%"}
{"Change": "N85Q", "relative binding score": "49.9%"}
{"Change": "F56V", "relative binding score": "-1.36%"}
{"data": "Mixed results"}
{"Molecule": "PhoQ, residues 284 288 289 292 302 303 AGHLVA", "target": "PhoP, residues 12 14 15 18 19 LHHSG (Escherichia coli, UniProt P23836)", "test": "Sort-seq, refers to: YFP reporter", "test system": "E. coli", "conditions": "PhoQ-PhoP variant library, added: 10 µM Mg2+", "scale": "baseline: high Mg2+ state, higher = stronger signaling", "measurement": "fold induction", "result": 2.14}
